Results of several laboratories.
A part holds a random share of what one study measured. Changes are numbered by the printed parent chain.

Series 1
Target: Interferon regulatory factor 7, full length, phosphomimetic (IRF7, Homo sapiens, UniProt Q92985, residues 1-503, S471D/S472D/S475D/S476D/S477D/S483D/S484D/S487D)
Chain of UniProt Q92985 (whole entry, unmodified, looked up): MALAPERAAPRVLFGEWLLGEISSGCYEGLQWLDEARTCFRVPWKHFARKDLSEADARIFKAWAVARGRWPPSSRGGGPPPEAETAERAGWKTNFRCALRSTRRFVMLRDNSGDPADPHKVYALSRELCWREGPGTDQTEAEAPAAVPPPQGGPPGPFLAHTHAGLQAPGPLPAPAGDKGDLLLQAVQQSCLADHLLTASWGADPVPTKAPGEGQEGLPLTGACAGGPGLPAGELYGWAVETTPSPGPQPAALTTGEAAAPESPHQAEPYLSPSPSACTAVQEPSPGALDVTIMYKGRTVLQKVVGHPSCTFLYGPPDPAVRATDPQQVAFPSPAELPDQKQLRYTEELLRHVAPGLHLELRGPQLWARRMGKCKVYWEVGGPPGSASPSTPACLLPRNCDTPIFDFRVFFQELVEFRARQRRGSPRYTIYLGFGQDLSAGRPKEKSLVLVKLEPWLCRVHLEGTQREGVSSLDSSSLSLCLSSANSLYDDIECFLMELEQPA
Technique: protein-binding microarray
Form: double-stranded DNA, one strand shown
Medium: in vitro
Tested at: 2200 nM top
Setting: 60-bp whole probe
Together with: salmon DNA 0.4 mg/ml
Relative to: random background probes
Direction: higher = stronger binding
Shared flanks, not repeated: GCCTAGCAC … GTCTTGATTCGCTTGACGCTGCTG
Strand | fitted relative affinity [z-score]
GACGCACTGAGTTTCGAGACGTGCTAG | 2.23
TCAACTTGTCTTTTCACACTGTGCTAG | 1.52
GACGGTCTCGGTATAGGGACGTGCTAG | -0.023
TTAGGTATCGGTAACGGTTAGTGCTAG | -0.0282
ACGAGTTTCTATTTTCTGAAGTGCTAG | 4.31
GGCGGTTTCCTTATCCTGACGTGCTAG | 2
GACGGACTGCTTATCCTAACGTGCTAG | 0.307
TTAGGTATCGGGTTACGGTTAGTGCTA | 1.6

Series 2
Target: RNA binding protein fox-1 homolog 2, RRM domain, GST-SBP tag (RBFOX2, Homo sapiens, UniProt O43251-10, residues 100-194)
Technique: RNA Bind-n-Seq
Form: RNA
Medium: in vitro
Tested at: 365 nM
Setting: natural RNA segment, single round, ends assumed
Relative to: no-protein control
Direction: higher = stronger binding
Shared flanks, not repeated: GGGAGUUCUACAGUCCGACGAUC … UGGAAUUCUCGGGUGCCAA
Strand | RBNS enrichment (R)
GAAGCAGAGUAAAGCUUACCCCCCAAACUGUGGUCCAGCUGGACCCCUUCUUUAAUUCUUGCCUAACUUAAUUAUUUUCAGGACCCUUCAAGUGCCAGGUGGAAUUUACA | 0.695
CCGGAACCAGAAGUGACGCGACCCCCCUCCCUCUCACUCCUCUUGCCCUCUGCUUUACUCUCAUGUGGCAAACGUGCGGCUCGUGGUGUGAGUGCCAGAAGCUGCCUCCG | 0.398
UGGCUACUGCUGAGUCCUCUGGGGUUGAGGGAAGGCGAGCCGGGCAGGGGCCAUGUCAUGUUAUUGGGACUUGGGGCUAAGUGGGAGGUCCUGUCCUUCCCCUCAUCUCU | 1.24
CUGAGCUUGGUAUUUGUCAUGUGCCAACUCUGACUCUGAGGUGGGCAGUGAGGGAAGCAGCCCCGGGCCUGCUUGCUUCCUGUCCCCGAAAUGUUCGUUUCUUCUGAAGU | 0.368
UUUUCUUCCCUAGAGGCAUUGAGGGCAAUUGCACUUUGGCUCUCUCAAGAUGUGUCAUUUUCAGACAUUCUUCAUGUCAGAAGAGCUUUUGUUGUAAGGAGAAAACCAGC | 1.66
GUCAACUGUUUACACACAAACUGCCAUGUCCCACGCCCCUUCCCUCUCCUUGUUUGCUAUGGGGGAGAUUGCUUCCCUCCCCAGAUCUUUGCUAUGUAGCUUAGAGUGAC | 1.7
CUAUAAAAAUGAACCUAAUGGGUGGAUUGAAUAUACAUUGAGCCCAAAGUCAAGUUUGGGGAAAAGGCAGACUAAGGCCUCCUUUCUCUGACCUCCCAGGAAGAAAAUAG | 0.488
UGAGAAGUUUUCCGGUAGAGUUGGAAAUCAGUUGUGAAUACAUUCUUUGCUAGUUGGAGUGCUUGUUUACUAAGCAUGUGCCGUCGUAGGUAUUAGUGCUAGUCUCAGAU | 2.68
CUUUGAUCUUUUUGUCCAAGAAAAGGAAUGUCUGACAGGCUUAAGCUUUCGUCCCCUUGCACUUAGACUCGAAGUUAGUAAAUCCUUAAAGGCUUUUUAAUAGCAGACUU | 0.406
CCAAAUUUCACCCAUUCCUGACUUUGAAUCAAUUGCAGAAAUGCAGGUGUGUUACUUUGUUGAUCAAUAACUUUGGAACAAUUAUGGAUCAAUUCUAUGGUCACUCUGAA | 0.494
GACCUGAAAUUGUAUAGUGUUGAUUUGUGCUGAGAUCAAGAGGCAGGUUAGAAGAACCUGACAUCCACUGUUUGCCUUGGAUAGUAUGGCUUGUUUUUGGAAAGAAAUUC | 4.47
GGGUGCUCUCCAGACCCGUGCAGGGGCCGCCUGGGGUACACGGAAGGAAGUUGAGUCCUAGUGCAAAAUGCAGGCGGACGUUGCCAGAGAGUGCGCAGCAAAUGACCUUC | 0.786

Series 3
Target: CCNA1, cyclin fold, Cln2 fusion (human)
Technique: yeast growth competition, sequencing
Medium: yeast
Setting: weak parent motif
Relative to: not given
Direction: higher = stronger binding
Starting sequence: E2F8 docking peptide (human); FVPQRKLEVSTED; partner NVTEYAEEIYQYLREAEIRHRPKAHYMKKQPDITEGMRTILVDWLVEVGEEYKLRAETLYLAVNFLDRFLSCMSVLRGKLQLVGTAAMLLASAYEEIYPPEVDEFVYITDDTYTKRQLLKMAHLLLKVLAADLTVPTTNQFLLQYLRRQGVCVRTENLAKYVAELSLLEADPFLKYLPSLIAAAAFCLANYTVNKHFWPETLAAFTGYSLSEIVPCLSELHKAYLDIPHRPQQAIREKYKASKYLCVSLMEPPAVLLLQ
Variant | normalised enrichment score
V9F | 0.0933
D13A | 0.131
E12A | 0.152
S10A | 0.414
V9A | 0.02
R5K V9F | -0.169
E8A | 0.133
L7A | 0.434

Other studies, line by line
Substance | target | test | system | setting | scale | endpoint | result
PhoQ, residues 284 288 289 292 302 303 TLMATV | PhoP, residues 12 14 15 18 19 VHSCL (Escherichia coli, UniProt P23836) | Sort-seq, item: YFP reporter | E. coli | PhoQ-PhoP variant library, together with: 10 µM Mg2+ | relative to: high Mg2+ state, higher = stronger signaling | fold induction | 4.48

Excerpt of the above (series 2):
Strand | RBNS enrichment (R)
CCGGAACCAGAAGUGACGCGACCCCCCUCCCUCUCACUCCUCUUGCCCUCUGCUUUACUCUCAUGUGGCAAACGUGCGGCUCGUGGUGUGAGUGCCAGAAGCUGCCUCCG | 0.398
UGGCUACUGCUGAGUCCUCUGGGGUUGAGGGAAGGCGAGCCGGGCAGGGGCCAUGUCAUGUUAUUGGGACUUGGGGCUAAGUGGGAGGUCCUGUCCUUCCCCUCAUCUCU | 1.24
CUGAGCUUGGUAUUUGUCAUGUGCCAACUCUGACUCUGAGGUGGGCAGUGAGGGAAGCAGCCCCGGGCCUGCUUGCUUCCUGUCCCCGAAAUGUUCGUUUCUUCUGAAGU | 0.368
UUUUCUUCCCUAGAGGCAUUGAGGGCAAUUGCACUUUGGCUCUCUCAAGAUGUGUCAUUUUCAGACAUUCUUCAUGUCAGAAGAGCUUUUGUUGUAAGGAGAAAACCAGC | 1.66
